{"data": "Results gathered from unrelated publications", "note": "Numbered parts are unrelated; each lists some results of a single study."}
{"data": "Study 1", "target": "RNA binding protein fox-1 homolog 2, RRM domain, GST-SBP tag (RBFOX2, Homo sapiens, UniProt O43251-10, residues 100-194)", "method": "RNA Bind-n-Seq", "molecule type": "RNA", "matrix": "in vitro", "tested at": "365 nM", "notes": "natural RNA segment, single round, ends assumed", "relative to": "no-protein control", "direction": "higher = stronger binding", "all sequences stand within": "GGGAGUUCUACAGUCCGACGAUC … UGGAAUUCUCGGGUGCCAA", "Construct (chain)": "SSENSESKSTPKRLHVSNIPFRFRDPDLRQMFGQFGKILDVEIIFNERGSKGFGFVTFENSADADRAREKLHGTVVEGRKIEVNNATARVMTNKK"}
{"Strand": "UCAAAGUGUUUGUGUCCCUUGCCAGCCUCCCUGGGGUCUGGGGACCUGCAGCAGCAUGUCUGGCAAACUGAGUCGCCCUCCUGCCUCCAGCUCUCUGUUGAGCAGAGGGA", "RBNS enrichment (R)": 3.07}
{"Strand": "AUCUACAUACCUACACCUAUCUAUAUAUAAGCUCAUGGUAGAAAACCAUAGCUAAGUAGCAUCGCAGACUUAAGCGUACAAAGUGAUCUUGUUCACAAGUAAUCUGUUGA", "RBNS enrichment (R)": 0.322}
{"Strand": "CUACUGUAGGAUCUUACAUUCUGUUAGUAGUACAAAGGGAAGAGUUUUCCUAAUCCUUCCUUACCAUAUCCUACACAGCAAAAUCCUUUUAGACAUAUAUUGCCAAGCCA", "RBNS enrichment (R)": 0.283}
{"Strand": "UUCCCACCCAGAACCCUUCUUGUGAGAGAUGCGCACUUUAAAGGGUGAUUUUGUUCCAGAUGUCUAUGGCUGGGUGUGUGGGGGAGGAGCACUCUCAUCUGCAGGACUCU", "RBNS enrichment (R)": 0.603}
{"Strand": "UAAUAGGACAUCAUAUGGUAAUAGACUGGUUUGACUAUAUUGUUAGCUGCCACAGUAAGCAGGUCAUUGUAUAGGUAAAUGCCUGCACCCAUAAUUUUCUAGUAAUAGCC", "RBNS enrichment (R)": 0.471}
{"Strand": "UGGAAGUGGAGCCAAGUUUCAGGAUUUGCAUCCCAAGAGUCUCUAAGAAUUCUUGCCAUGGUCCUAAAAACUGGAUUUUAAGAUUAUUUUACUUCCCCUUCAUGCCUGUC", "RBNS enrichment (R)": 0.689}
{"Strand": "CACUGUGUGUGUGAUCAUGCUGGGAGGGGUAACUGCUUGGAAUUAAAAGGUUGCACUGGGUCCCUAAUCUAUUGUUUCUAUCCAUGCCUGUGCAUAUCAGACAAGCACUG", "RBNS enrichment (R)": 0.584}
{"Strand": "CAAAGGGAAUGCUUCCAGUUUUUGCCCAUUCAGUAUGAUAUUGGCUGUGGGUUUGUCAUAGAUAGCUCUUAUUAUUUUGAAAUACACCCCAUCAAUCCCUAAUUUAUUGA", "RBNS enrichment (R)": 1.22}
{"data": "Study 2", "target": "Interferon regulatory factor 5, full length, phosphomimetic (IRF5, Homo sapiens, UniProt Q13568-2, residues 1-514, K96S/S451D/S453D/S456D/S462D)", "method": "protein-binding microarray", "molecule type": "double-stranded DNA, one strand shown", "matrix": "in vitro", "tested at": "250 nM", "notes": "60-bp whole probe", "with": "salmon DNA 0.4 mg/ml", "relative to": "random background probes", "direction": "higher = stronger binding", "all sequences stand within": "GCCTAGCAC … GTCTTGATTCGCTTGACGCTGCTG"}
{"Strand": "TTAGGACTGCTTCTTCTTTAGTGCTAG", "log fluorescence [z-score]": -0.0782}
{"Strand": "TTAGGTCTCCTACTGTTTTAGTGCTAG", "log fluorescence [z-score]": 0.16}
{"Strand": "AAATTTTGATGAACTTAAGCGTGCTAG", "log fluorescence [z-score]": 0.324}
{"Strand": "TTAGGTATCCTACTGCTATAGTGCTAG", "log fluorescence [z-score]": -0.151}
{"Strand": "TTAGGACTGGAATTTCGGTTAGTGCTA", "log fluorescence [z-score]": 5.84}
{"Strand": "CTACTTCTCTTTTGGCTTTCGTGCTAG", "log fluorescence [z-score]": 1.93}
{"Strand": "TCATCCCTTTCTCTCTGACTGTGCTAG", "log fluorescence [z-score]": 1.13}
{"Strand": "GGATGTGTCTTAAATAGGGCAGTGCTA", "log fluorescence [z-score]": -0.32}
{"Strand": "TTATATTTCAGTCTCGATTAGTGCTAG", "log fluorescence [z-score]": 3.37}
{"Strand": "GACGGTTTCGACTTTAGGGACGTGCTA", "log fluorescence [z-score]": 5.5}
{"Strand": "TCAACAATGATGTTTTGAACTGTGCTA", "log fluorescence [z-score]": 0.576}
{"data": "Study 3", "target": "Centromere-binding protein 1, full length, N-terminal tag (CBF1, Saccharomyces cerevisiae, UniProt P17106, residues 1-351)", "method": "protein-binding microarray", "molecule type": "double-stranded DNA, one strand shown", "matrix": "in vitro", "tested at": "0.8 µM", "notes": "whole 60-bp probe, no competitor", "direction": "higher = stronger binding", "all sequences stand within": "… GTCTTGATTCGCTTGACGCTGCTG", "sequence of UniProt P17106 (whole entry, looked up)": "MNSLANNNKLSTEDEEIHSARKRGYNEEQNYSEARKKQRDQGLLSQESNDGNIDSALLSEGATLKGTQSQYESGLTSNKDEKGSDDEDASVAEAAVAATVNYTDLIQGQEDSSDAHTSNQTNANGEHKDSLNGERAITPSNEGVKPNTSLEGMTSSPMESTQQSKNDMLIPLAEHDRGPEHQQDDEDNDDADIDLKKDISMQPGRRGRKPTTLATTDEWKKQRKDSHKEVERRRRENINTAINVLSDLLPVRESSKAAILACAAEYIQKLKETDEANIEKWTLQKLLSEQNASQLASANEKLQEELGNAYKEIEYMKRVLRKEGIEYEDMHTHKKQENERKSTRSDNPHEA"}
{"Strand": "CTACTGTTAATATTACACATGACAAAAAAGTTGTTC", "fluorescence intensity": "1300 a.u."}
{"Strand": "GAAGAGACGCCCATTAATGTGACTTGAATATACTAG", "fluorescence intensity": "605 a.u."}
{"Strand": "GAACAATTCTAATTAAACGTGCACAGATCTTTTTAG", "fluorescence intensity": "669 a.u."}
{"Strand": "CTATGCAATGATTTAAGCGTGCGTGAAGATAACTTC", "fluorescence intensity": "565 a.u."}
{"Strand": "GAAAGTATTTTGATTATCATGATGAAGTAAAAGTAG", "fluorescence intensity": "568 a.u."}
{"Strand": "TGTACGAAGCTATCCTGCGTGGCTATAGTAGTTAGG", "fluorescence intensity": "517 a.u."}
{"data": "Mixed results"}
{"Substance": "PhoQ, residues 284 288 289 292 302 303 SACGEM", "target": "PhoP, residues 12 14 15 18 19 NYFTV (Escherichia coli, UniProt P23836)", "test": "Sort-seq, item: YFP reporter", "test system": "E. coli", "conditions": "PhoQ-PhoP variant library, with: 10 µM Mg2+", "scale": "relative to: high Mg2+ state, higher = stronger signaling", "measurement": "fold induction", "value": 1.42}
{"note": "A few entries again (study 1):"}
{"Strand": "UUCCCACCCAGAACCCUUCUUGUGAGAGAUGCGCACUUUAAAGGGUGAUUUUGUUCCAGAUGUCUAUGGCUGGGUGUGUGGGGGAGGAGCACUCUCAUCUGCAGGACUCU", "RBNS enrichment (R)": 0.603}
{"Strand": "UAAUAGGACAUCAUAUGGUAAUAGACUGGUUUGACUAUAUUGUUAGCUGCCACAGUAAGCAGGUCAUUGUAUAGGUAAAUGCCUGCACCCAUAAUUUUCUAGUAAUAGCC", "RBNS enrichment (R)": 0.471}
{"Strand": "UGGAAGUGGAGCCAAGUUUCAGGAUUUGCAUCCCAAGAGUCUCUAAGAAUUCUUGCCAUGGUCCUAAAAACUGGAUUUUAAGAUUAUUUUACUUCCCCUUCAUGCCUGUC", "RBNS enrichment (R)": 0.689}
